Results from different studies.
A part holds a random share of what one study measured. Substitutions count along the parent as printed.

Block 1 — target: CCNE2, cyclin fold, Cln2 fusion (human); method: yeast growth competition, sequencing; medium: yeast; setting: strong parent motif; baseline: not given; reading: higher = stronger binding
Parent: SCAPER docking peptide (human); SNARRSLNFGGST; partner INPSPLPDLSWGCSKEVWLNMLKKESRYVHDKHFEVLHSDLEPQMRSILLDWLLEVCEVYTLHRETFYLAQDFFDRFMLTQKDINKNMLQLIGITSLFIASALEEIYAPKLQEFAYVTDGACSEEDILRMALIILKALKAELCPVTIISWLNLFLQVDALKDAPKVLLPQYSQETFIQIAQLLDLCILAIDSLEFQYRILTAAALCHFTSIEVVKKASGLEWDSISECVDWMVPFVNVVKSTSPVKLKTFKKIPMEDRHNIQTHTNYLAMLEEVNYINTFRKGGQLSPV
| Change | normalised enrichment score |
| --- | --- |
| L7C | 0.736 |
| S12M | -0.184 |
| S6P | -0.101 |
| S1A | 1.06 |
| L7Q | 0.48 |
| N2H | 1.63 |
| L7K | 0.664 |
| S6T | 2.37 |
| R5S | 0.442 |
| R4K | 1.01 |
| R4T | 0.701 |
| L7R | 0.307 |

Block 2 — method: DHFR PCA, deep sequencing; medium: yeast; with: (+)-ABA 58 µM; baseline: wild-type fitted maximum; reading: higher = stronger binding
Target: ABI1, truncated, D143A, DHFR fusion (Arabidopsis thaliana)
Setting: methotrexate growth selection, single substitutions
Parent: PYL1, truncated, DHFR fusion (Arabidopsis thaliana); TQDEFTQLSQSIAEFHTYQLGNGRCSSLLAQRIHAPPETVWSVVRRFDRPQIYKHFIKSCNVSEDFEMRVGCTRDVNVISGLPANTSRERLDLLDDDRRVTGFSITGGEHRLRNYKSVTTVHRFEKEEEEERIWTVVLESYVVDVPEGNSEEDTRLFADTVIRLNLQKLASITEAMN
| Change | relative binding score |
| --- | --- |
| S9F | 69.9% |
| T17V | 68.3% |
| S140R | 1.77% |
| C25W | 3.49% |
| F157Q | -1.8% |
| S171K | 86.8% |
| R123Q | 98.9% |
| D144F | 13.4% |

Block 3 — method: protein binding microarray; molecule type: double-stranded DNA, one strand shown; medium: in vitro; tested at: not given; baseline: not given; reading: higher = stronger binding
Target: Histone acetyltransferase KAT6A, winged helix 2, GST fusion (KAT6A, Homo sapiens, UniProt Q92794, residues 85-181)
Setting: 8-mer, flanks averaged, mean of 2 arrays, mostly near background
Target sequence (chain): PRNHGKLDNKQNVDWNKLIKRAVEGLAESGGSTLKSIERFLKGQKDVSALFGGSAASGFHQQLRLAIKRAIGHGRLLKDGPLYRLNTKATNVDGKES
| Oligonucleotide | E-score |
| --- | --- |
| CAAAACTA | 0.114 |
| CTTGCTTA | -0.0495 |
| ACGGGGGA | -0.0273 |
| CGGTAACC | 0.0689 |
| CAGAAGCC | 0.154 |
| AGCGCGAT | 0.0543 |
| AGATGTGC | -0.144 |
| ATATCGAG | 0.0933 |
| GAGTCTGC | -0.0096 |
| ACTGGATA | 0.0246 |
| GGTGTGAA | 0.0757 |
| TAGGAGAA | -0.135 |
| GGGTCTCA | -0.23 |

Further values, each from its own experiment
| Substance | target | test | test system | conditions | scale | measurement | value |
| --- | --- | --- | --- | --- | --- | --- | --- |
| PhoQ, residues 284 288 289 292 302 303 NLSRDF | PhoP, residues 12 14 15 18 19 LYFRQ (Escherichia coli, UniProt P23836) | Sort-seq, refers to: YFP reporter | E. coli | PhoQ-PhoP variant library, with: 10 µM Mg2+ | baseline: high Mg2+ state, higher = stronger signaling | fold induction | 10.3 |
